Published values collected from several papers.
± gives the spread as reported.
Cell line: Jurkat

| SMILES | test | conditions | scale | IC50 [µM] |
| --- | --- | --- | --- | --- |
| N#Cc1c(N)nc2c(c1-c1cccs1)Cc1cc(O)ccc1-2 | cell growth or viability, ATP luminescence | – | – | 59.5 |
| CCOc1cncc(-c2ccc(NC(=O)C3(c4ccnc(NS(=O)(=O)C5CC5)n4)CCOCC3)nc2)n1 | cell growth or viability, ATP luminescence | 72 h | – | 0.023 |
| C=CC(=O)N1CCCC(n2c(=O)c3ncccc3n(Cc3ccc(Oc4ccccc4)cc3)c2=O)C1 (stereo not drawn) | cell growth or viability, MTT | 72 h | – | 15 |
| N#Cc1c(N)nc2c(c1-c1ccc(CO)o1)CCc1cc(O)ccc1-2 | cell growth or viability, ATP luminescence | – | – | 9.6 |
| Cc1cc(C)cc(NC(=O)N(Cc2ccc(C(=O)NO)cc2)OCc2ccccc2)c1 | cell viability | 72 h | – | 4.68 ± 0.197 |
| CO[C@@H](C[C@H]1C(C)=CC[C@@H]2[C@]3(C)C[C@H](O[C@@H]4O[C@@H](C)[C@H](OC(=O)c5cccc(O)c5)[C@@H](O[C@@H]5O[C@H](CO)[C@@H](O)[C@H](O)[C@H]5NC(C)=O)[C@H]4O)[C@@H](O)C(C)(C)[C@H]3CC[C@]21C)[C@H](N)C(=O)O | cell growth or viability, CCK-8 | 72 h | – | 0.203 |
| NC(=O)c1ccc(-c2ccccc2Cl)c2c3c([nH]c12)CC[C@H](N)C3 | cell growth or viability | – | – | 0.0422 |
| N#Cc1c(N)nc2c(c1-c1ccc(CO)o1)Cc1cccc(O)c1-2 | cell viability, CellTiter-Glo | – | no inhibition at 100 µM | > 100 |
| CN1CCC(N[C@H]2CCc3[nH]c4c(C(N)=O)ccc(-c5ccccc5Cl)c4c3C2)CC1 | cell growth or viability | – | – | 3.1 |
| O=S(=O)(c1ccc2c(c1)OCO2)n1cc(CCCCN2CCC(=C(c3ccc(F)c(F)c3)c3ccc(F)c(F)c3)CC2)nn1 | cell growth or viability, ATP luminescence | 48 h | – | 4.17 |
| CO[C@@H](C[C@H]1C(C)=CC[C@@H]2[C@]3(C)C[C@H](O[C@@H]4O[C@@H](C)[C@H](OC(=O)c5cccc(O)c5)[C@@H](O)[C@H]4O)[C@@H](O)C(C)(C)[C@H]3CC[C@]21C)[C@H](N)C(=O)O | cell growth or viability, CCK-8 | 72 h | – | 1.17 |
| CC(C)c1ccc(N(C)c2ccc3c(c2)OCC[C@H]3CNc2cnccc2C(=O)O)cc1 | cell growth or viability, MTS | 7 days | – | 0.0027 |

Some of these lines once more:
| SMILES | test | conditions | scale | IC50 [µM] |
| --- | --- | --- | --- | --- |
| C=CC(=O)N1CCCC(n2c(=O)c3ncccc3n(Cc3ccc(Oc4ccccc4)cc3)c2=O)C1 (stereo not drawn) | cell growth or viability, MTT | 72 h | – | 15 |
